Assay results pooled from the literature.
Numbered parts are unrelated; each lists some results of a single study.

Series 1 — method: RNA Bind-n-Seq; form: RNA; matrix: in vitro; concentration: 365 nM; relative to: no-protein control; direction: higher = stronger binding
Target: RNA binding protein fox-1 homolog 2, RRM domain, GST-SBP tag (RBFOX2, Homo sapiens, UniProt O43251-10, residues 100-194)
Notes: natural RNA segment, single round, ends assumed
Target sequence (chain): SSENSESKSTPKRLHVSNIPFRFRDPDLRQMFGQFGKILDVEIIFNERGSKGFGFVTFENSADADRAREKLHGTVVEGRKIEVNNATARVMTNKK
`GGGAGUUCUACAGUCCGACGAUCGAAAUGUUUUAACAUCUGGAGCCUUUGUGGGUGGAAAUCUGUCUCCAAUUACAACUCUGCACUGGAUGUGAAGAAGCAAAAACUAUUCCGUCUACUCACAGAACAGUACUUGGAAUUCUCGGGUGCCAA`: “RBNS enrichment (R)” 0.242.
Under “RBNS enrichment (R)”, `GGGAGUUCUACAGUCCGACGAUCAUGUCAUGUACUACACACAUGUCAUAUAGUACAUACAUGUCAUGUCCAUUUAACGACUGGUCACCUGCUGGGGACCCAGGCAUCUGCCUUGUUUUCCUUUUUCUUUCAGUUGGAAUUCUCGGGUGCCAA` is recorded as 0.374.
For `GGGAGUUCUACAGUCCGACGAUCGGGCCAAGCUAUAGAGGCAUGAUCAAUGUCUCCACCUCAUCAGACAUGGACCAUAACUCUGCUAUACCAGGCAGCCAGGUAUCUAGCAAUGUAGGGGACGUCAUGUCGUUUGGAAUUCUCGGGUGCCAA`, “RBNS enrichment (R)” read 0.253.
Under “RBNS enrichment (R)”, `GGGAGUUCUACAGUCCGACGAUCCAAUACCCUUGUUAAUUGCCCGUUGGCAACUAACUUAAUCAUGUGCUUCCAACACACUAAAUAGGGAAAACUUACAGGGCAAUAUUUUUAACUUGUGGCAAGAGGGAGGCUGGAAUUCUCGGGUGCCAA` is recorded as 0.288.
For `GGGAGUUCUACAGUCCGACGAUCCGUUUUCUUGAUAAUUGUAAGCUUGAGAGUGUUUGUGGAAGAACUUACUUUCUUCUUAUGUAUACAUAAUUAAAUGAAAAGUCUUCAUAGGAGUUUGACAAAAUGAAUUGUGGAAUUCUCGGGUGCCAA`, “RBNS enrichment (R)” read 0.922.
For `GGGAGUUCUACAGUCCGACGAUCGGGAAGCUACACUUCCAAGUUGCUGUGGCUUCACUGCUAAGAAGAGAGUGAGUGAUGGUCUUGGAAAGGAGCUGGGGUGUGGAUGCUAAAGCCCCCAUUCAUACAAACAAUGGAAUUCUCGGGUGCCAA`, “RBNS enrichment (R)” read 2.08.
`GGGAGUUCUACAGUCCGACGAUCUGGAUUCUCAGCUGCCUAAUCUGUACAUACCUGAUCCCUCGGGUUUUGUUUACAAGGAAUCUUGACUGACCAAAAGGCAUUGUAACUCUGCCACAGUACAAGGUACAGAGUGGAAUUCUCGGGUGCCAA`: “RBNS enrichment (R)” 0.228.
Under “RBNS enrichment (R)”, `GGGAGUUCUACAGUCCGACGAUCACAUCACAGUACCACCCCAGGGGUGGCAGUAGACAACAACCCAGAAAUUUAGACAGGGAUCUCUUACCUUUGGAAAAUAGGGGUUAGGCAUGAAGGUGGUUGUGAUUAAGUGGAAUUCUCGGGUGCCAA` is recorded as 4.

Series 2 — method: universal PBM; form: double-stranded DNA, one strand shown; matrix: in vitro; concentration: not given; direction: higher = stronger binding
Target: Sal-like protein 4, full length isoform B (SALL4, Homo sapiens, UniProt Q9UJQ4-2, residues 1-616)
Notes: 8-mer, flanks averaged, mean of replicates
For `GGCTAGCC`, the E-score was -0.325.
With `ATTGGACA` the E-score was 0.141.
For `TAGGAAGA`, the E-score was 0.0468.
`AAAAGCGA` has an E-score of 0.117.
`GATCCCTA` has an E-score of -0.12.
The E-score of `TACAAAGA` is reported as 0.289.
For `TCGCACAA`, the E-score was -0.0434.
The E-score of `CACAGCCC` is reported as -0.263.
The E-score of `GCCTCCCC` is reported as -0.248.
The E-score of `ACGGAGTA` is reported as -0.0303.
The E-score of `AAATAATC` is reported as 0.321.
The E-score of `CGACTGTC` is reported as -0.225.
The E-score of `CCGAACCC` is reported as -0.331.

Series 3 — method: protein binding microarray; form: double-stranded DNA, one strand shown; matrix: in vitro; concentration: not given; relative to: not given; direction: higher = stronger binding
Target: Histone acetyltransferase KAT6A, winged helix 1, GST fusion (KAT6A, Homo sapiens, UniProt Q92794, residues 1-85)
Notes: 8-mer, flanks averaged, mean of 2 arrays, mostly near background
Construct (chain): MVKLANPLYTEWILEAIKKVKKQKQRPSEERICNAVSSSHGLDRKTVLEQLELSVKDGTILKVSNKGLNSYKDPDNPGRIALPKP
For `ATGATCTA`, the E-score was -0.149.
The E-score of `CTCAGCGA` is reported as 0.0405.
`AGAGTAAC` has an E-score of -0.0436.
With `AGATTGGC` the E-score was -0.169.
The E-score of `CCGAAATA` is reported as 0.0962.
`AACGTTAC` has an E-score of -0.0331.
With `AAGGAGCC` the E-score was 0.0272.
`AGACGTAA` has an E-score of -0.212.
The E-score of `AATTACAT` is reported as -0.099.
`GGCGTAGA` gave an E-score of 0.117.

Single results of other studies
The fold induction of `PhoQ, residues 284 288 289 292 302 303 HSSMNL` is reported as 17.4 (PhoP, residues 12 14 15 18 19 NQCAL (Escherichia coli, UniProt P23836); Sort-seq, measured: YFP reporter; E. coli; PhoQ-PhoP variant library, together with: 10 µM Mg2+; relative to: high Mg2+ state, higher = stronger signaling).

A few entries again (series 2):
The E-score of `CACAGCCC` is reported as -0.263.
The E-score of `AAATAATC` is reported as 0.321.
`AAAAGCGA` has an E-score of 0.117.
The E-score of `CGACTGTC` is reported as -0.225.
